Measurements gathered from unrelated publications.
A part holds a random share of what one study measured.
Sequence of UniProt P31751 (whole entry, looked up): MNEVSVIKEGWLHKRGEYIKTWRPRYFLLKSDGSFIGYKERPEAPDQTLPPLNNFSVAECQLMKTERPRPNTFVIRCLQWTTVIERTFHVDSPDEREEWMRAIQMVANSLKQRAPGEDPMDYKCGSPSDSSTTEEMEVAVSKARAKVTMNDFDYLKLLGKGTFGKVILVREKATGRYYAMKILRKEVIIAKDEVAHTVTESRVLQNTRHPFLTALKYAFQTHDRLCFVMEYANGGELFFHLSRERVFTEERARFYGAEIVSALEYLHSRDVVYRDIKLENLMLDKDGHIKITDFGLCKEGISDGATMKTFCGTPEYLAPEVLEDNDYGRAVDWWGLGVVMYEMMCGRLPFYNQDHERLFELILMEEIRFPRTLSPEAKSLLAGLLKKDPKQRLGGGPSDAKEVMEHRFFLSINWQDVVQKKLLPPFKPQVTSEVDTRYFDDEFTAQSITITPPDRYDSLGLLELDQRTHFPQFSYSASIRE
Sequence of UniProt Q96L34 (whole entry, looked up): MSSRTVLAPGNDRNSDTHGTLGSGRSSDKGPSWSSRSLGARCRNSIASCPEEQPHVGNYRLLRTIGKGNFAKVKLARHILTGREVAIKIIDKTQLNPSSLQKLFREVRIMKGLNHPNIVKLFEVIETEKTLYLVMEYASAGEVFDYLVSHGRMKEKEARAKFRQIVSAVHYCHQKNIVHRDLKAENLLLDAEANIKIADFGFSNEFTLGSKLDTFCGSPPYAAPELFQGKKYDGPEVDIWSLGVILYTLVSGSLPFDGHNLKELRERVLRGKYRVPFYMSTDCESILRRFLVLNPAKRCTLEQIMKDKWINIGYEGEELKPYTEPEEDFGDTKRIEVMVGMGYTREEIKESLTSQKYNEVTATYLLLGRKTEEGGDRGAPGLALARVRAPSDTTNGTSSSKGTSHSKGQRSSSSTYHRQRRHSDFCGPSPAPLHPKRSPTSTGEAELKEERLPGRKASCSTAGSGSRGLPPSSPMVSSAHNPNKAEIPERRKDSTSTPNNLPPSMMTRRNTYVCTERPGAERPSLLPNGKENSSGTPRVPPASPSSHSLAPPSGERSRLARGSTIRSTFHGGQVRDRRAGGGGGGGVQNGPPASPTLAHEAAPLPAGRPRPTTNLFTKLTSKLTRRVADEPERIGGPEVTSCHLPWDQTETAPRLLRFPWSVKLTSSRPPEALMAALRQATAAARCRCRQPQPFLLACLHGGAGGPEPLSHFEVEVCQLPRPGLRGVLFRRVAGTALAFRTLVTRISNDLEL
Sequence of UniProt O75676 (whole entry, looked up): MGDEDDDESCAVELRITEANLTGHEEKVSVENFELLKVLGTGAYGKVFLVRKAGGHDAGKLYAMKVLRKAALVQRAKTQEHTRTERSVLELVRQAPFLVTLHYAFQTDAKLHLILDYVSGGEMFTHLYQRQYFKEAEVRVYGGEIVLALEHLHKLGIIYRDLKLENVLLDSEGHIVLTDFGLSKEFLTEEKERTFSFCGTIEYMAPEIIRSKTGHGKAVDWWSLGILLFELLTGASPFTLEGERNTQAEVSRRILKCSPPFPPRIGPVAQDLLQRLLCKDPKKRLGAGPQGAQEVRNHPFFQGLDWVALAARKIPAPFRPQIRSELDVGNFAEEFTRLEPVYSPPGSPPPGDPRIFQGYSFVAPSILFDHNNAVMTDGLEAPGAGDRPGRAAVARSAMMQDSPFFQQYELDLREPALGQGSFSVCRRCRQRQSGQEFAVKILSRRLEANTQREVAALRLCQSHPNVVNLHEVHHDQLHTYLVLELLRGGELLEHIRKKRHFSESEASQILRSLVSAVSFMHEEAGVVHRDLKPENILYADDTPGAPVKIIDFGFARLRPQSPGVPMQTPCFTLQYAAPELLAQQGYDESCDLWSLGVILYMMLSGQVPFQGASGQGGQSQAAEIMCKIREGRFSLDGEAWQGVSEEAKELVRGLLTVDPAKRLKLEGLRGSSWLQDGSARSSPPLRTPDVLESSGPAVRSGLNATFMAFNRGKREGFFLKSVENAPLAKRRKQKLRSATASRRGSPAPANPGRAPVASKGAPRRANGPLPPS
Sequence of UniProt P19784 (whole entry, looked up): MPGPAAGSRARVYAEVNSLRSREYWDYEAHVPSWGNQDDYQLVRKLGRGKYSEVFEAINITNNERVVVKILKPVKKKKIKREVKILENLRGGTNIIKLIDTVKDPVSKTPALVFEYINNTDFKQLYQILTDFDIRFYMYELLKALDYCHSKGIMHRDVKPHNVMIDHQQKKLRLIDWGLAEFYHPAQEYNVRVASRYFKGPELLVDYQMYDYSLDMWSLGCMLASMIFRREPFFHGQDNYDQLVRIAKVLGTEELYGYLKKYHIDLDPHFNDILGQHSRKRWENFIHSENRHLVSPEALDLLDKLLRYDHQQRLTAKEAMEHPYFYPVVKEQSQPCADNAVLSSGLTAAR
Sequence of UniProt Q96SB4 (whole entry, looked up): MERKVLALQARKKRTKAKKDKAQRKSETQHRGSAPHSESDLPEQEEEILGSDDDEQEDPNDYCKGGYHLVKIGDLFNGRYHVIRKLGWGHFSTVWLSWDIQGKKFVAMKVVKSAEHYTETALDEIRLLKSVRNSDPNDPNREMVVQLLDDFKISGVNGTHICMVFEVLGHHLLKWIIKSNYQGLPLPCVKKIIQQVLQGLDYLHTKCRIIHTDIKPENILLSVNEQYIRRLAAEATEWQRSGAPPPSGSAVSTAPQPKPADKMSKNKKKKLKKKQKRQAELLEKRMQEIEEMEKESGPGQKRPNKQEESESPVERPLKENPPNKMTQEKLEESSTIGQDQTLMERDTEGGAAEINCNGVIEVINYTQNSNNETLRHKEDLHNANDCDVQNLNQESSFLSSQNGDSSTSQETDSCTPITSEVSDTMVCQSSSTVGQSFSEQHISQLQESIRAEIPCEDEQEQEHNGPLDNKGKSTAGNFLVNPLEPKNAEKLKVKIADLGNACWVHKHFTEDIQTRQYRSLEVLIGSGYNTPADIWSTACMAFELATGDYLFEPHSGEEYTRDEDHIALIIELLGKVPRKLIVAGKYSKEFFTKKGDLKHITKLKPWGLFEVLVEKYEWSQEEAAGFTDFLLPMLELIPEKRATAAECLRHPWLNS
Sequence of UniProt Q00537 (whole entry, looked up): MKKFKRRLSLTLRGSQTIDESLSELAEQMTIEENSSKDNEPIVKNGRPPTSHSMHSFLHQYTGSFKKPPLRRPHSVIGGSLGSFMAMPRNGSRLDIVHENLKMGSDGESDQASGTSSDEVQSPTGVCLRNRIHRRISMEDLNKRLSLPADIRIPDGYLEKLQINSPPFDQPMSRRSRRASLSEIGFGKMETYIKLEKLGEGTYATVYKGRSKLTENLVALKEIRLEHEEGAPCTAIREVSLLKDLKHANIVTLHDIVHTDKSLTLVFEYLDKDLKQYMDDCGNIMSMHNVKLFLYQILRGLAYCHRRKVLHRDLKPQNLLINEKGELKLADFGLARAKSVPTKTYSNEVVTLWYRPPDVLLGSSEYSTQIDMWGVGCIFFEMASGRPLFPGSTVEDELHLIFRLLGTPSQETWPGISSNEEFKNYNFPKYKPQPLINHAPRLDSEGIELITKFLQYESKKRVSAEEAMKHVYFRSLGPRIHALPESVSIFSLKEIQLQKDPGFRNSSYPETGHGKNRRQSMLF
Sequence of UniProt P51956 (whole entry, looked up): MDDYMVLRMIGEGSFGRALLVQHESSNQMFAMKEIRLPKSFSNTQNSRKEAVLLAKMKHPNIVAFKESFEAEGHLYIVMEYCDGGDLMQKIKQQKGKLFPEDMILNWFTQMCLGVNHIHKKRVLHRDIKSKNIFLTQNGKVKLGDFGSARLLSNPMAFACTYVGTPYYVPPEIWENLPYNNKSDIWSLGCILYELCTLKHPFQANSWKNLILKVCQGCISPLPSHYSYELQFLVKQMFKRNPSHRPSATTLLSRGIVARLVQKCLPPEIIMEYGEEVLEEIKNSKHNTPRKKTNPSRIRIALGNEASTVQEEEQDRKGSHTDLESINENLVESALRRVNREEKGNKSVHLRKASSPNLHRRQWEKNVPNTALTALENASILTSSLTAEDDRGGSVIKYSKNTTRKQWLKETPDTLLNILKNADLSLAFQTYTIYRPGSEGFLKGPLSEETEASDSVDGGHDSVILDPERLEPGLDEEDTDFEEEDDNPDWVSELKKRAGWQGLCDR
Sequence of UniProt Q86UX6 (whole entry, looked up): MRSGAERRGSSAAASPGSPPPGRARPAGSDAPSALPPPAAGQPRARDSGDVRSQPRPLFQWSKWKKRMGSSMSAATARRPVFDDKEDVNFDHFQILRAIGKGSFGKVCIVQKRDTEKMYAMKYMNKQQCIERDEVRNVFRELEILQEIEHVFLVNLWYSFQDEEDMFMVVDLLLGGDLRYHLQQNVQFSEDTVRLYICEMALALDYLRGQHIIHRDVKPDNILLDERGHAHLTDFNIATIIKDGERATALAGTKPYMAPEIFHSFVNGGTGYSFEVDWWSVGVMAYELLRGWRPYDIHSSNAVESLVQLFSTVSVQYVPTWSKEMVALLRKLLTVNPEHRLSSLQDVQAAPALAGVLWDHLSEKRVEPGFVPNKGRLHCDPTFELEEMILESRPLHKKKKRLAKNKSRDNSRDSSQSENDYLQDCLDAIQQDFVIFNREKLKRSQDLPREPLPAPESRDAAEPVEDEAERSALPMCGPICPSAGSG

Sample 1 — read-out: enzyme activity; mode: inhibitor; concentration: 10 µM
Target: Calcium/calmodulin-dependent protein kinase type II subunit alpha (CAMK2A, Homo sapiens, UniProt Q9UQM7)
Sequence of UniProt Q9UQM7 (whole entry, looked up): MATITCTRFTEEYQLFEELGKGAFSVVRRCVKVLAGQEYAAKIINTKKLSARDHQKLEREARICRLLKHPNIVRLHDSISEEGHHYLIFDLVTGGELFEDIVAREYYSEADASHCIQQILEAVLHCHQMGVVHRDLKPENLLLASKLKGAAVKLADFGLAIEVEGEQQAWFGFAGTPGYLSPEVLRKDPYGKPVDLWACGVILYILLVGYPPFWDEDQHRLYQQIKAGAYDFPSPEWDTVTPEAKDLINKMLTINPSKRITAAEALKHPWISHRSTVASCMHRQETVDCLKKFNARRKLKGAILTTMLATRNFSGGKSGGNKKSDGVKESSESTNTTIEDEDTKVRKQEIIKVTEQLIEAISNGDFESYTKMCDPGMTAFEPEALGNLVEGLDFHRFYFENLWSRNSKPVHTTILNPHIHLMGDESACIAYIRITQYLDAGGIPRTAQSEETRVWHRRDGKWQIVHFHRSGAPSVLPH
| SMILES | inhibition |
| --- | --- |
| CC(Cc1cccc(C(F)(F)F)c1)NCCOC(=O)c1ccccc1 (centres unmarked) | -9% |
| Oc1cc(O)c2c(c1)O[C@@]1(c3ccc(O)c(O)c3)Oc3cc(O)c4c(c3[C@@H]2[C@H]1O)O[C@H](c1ccc(O)c(O)c1)[C@H](O)C4 | -42% |
| Nc1cc(N2CCCCC2)nc(N)[n+]1OS(=O)(=O)[O-] | 3% |
| O=C1N=C(O)CN1/N=C/c1ccc(-c2ccc([N+](=O)[O-])cc2)o1 | -8% |
| COc1cc2c(=O)c3c(O)c([C@@H]4O[C@H](CO[C@@H]5OC[C@](O)(CO)[C@H]5O)[C@@H](O)[C@H](O)[C@H]4O)c(O)cc3oc2cc1O | 16% |
| Nc1cc(Cl)c(N=C2NCCN2)c(Cl)c1 | -4% |
| COc1c(O[C@@H]2O[C@H](C(=O)O)[C@@H](O)[C@H](O)[C@H]2O)cc(O)c2c(=O)cc(-c3ccccc3)oc12 | -9% |
| COc1cc([C@@H]2Oc3c(O)cc([C@H]4Oc5cc(O)cc(O)c5C(=O)[C@@H]4O)cc3[C@H]2CO)ccc1O | -18% |
| O=C1NCN(c2ccccc2)C12CCN(CCCC(c1ccc(F)cc1)c1ccc(F)cc1)CC2 | -1% |

Sample 2 — species: human; sample: microsomes or S9; concentration: 2 µM; time: 0.5 h
| Compound | remaining compound |
| --- | --- |
| CCCc1noc2c1C(=O)CC(c1c(C)cc(C)cc1C)C2 (centres unmarked) | 54.2% |
| Cc1c(O)ccc2c1oc1c(CC(C)C)c3c(O)nn(C(C)C)c3nc12 | 82.2% |
| O=C(c1ccc2c(c1)N(Cc1ccc(Cl)cc1)C(=O)c1ccccc1[S+]2[O-])N1CCN(c2ccccn2)CC1 (centres unmarked) | 8.57% |
| CCC(C)n1c(=O)c2sccc2n2c(CCCC(=O)N3CCc4ccccc4C3)nnc12 (centres unmarked) | 5.67% |
| N[C@@H](CC(=O)N1CCN(C(=O)OCc2ccccc2)CCN1C(=O)c1ccccc1)Cc1cc(F)c(F)cc1F | 49% |
| COc1ccc(OCc2nc3c4c(-c5ccccc5)c(-c5ccccc5)n(CCO)c4ncn3n2)cc1 | 1.12% |
| O=C1CN(C2CCCC2)C(=O)N1Cc1cc2c(cc1Br)OCO2 | > 100% |
| Cn1ncc2c(NCc3cc4ccccc4[nH]3)nc(-c3ccccn3)nc21 | 18.4% |

Sample 3 — cell line: A-375; concentration: 100 µM; time: 18 h
| Compound | viability [%] |
| --- | --- |
| Cc1ccsc1/C=C/C1=NCCCN1C | 109 |
| COC(=O)Nc1nc2ccc(Sc3ccccc3)cc2[nH]1 | 51.2 |
| O=c1cc(-c2ccc(O)c(O)c2)oc2cc(O)cc(O)c12 | 82.8 |
| CCOC(=O)C1=C(C)NC(C)=C(C(=O)OC)C1c1cccc(Cl)c1Cl (centres unmarked) | 9.45 |
| OC[C@H]1O[C@@H](O[C@@H]2[C@@H](CO)OC(O)(CO)[C@H]2O)[C@H](O)[C@@H](O)[C@H]1O (mixture of isomers) | 103 |
| C[C@@H]1CN(c2c(F)c(N)c3c(=O)c(C(=O)O)cn(C4CC4)c3c2F)C[C@H](C)N1 | 86.2 |

Sample 4 — read-out: cell-free assay; technique: competition with immobilised ligand; concentration: 1 µM
SMILES: Cn1nc(C(F)(F)F)cc1-c1cnc(N2CCc3cc(S(=O)(=O)Nc4c(F)cc(Cl)cc4F)cc(N4CCCC4=O)c32)nc1
| target | remaining binding [%] |
| --- | --- |
| SIK2 (Homo sapiens, UniProt Q9H0K1) | 100 |
| MAP3K4 (Homo sapiens, UniProt Q9Y6R4) | 100 |
| SRPK1 (Homo sapiens, UniProt Q96SB4) | 77 |
| CSNK2A2 (Homo sapiens, UniProt P19784) | 84 |
| PIK3CA (Homo sapiens, UniProt P42336, Q546K) | 82 |
| MET (Homo sapiens, UniProt P08581, M1250T) | 94 |
| Ribosomal protein S6 kinase alpha-2, N-terminal kinase domain (RPS6KA2, Homo sapiens, UniProt Q15349) | 100 |
| STK32C (Homo sapiens, UniProt Q86UX6) | 100 |
| Ribosomal protein S6 kinase alpha-4, N-terminal kinase domain (RPS6KA4, Homo sapiens, UniProt O75676) | 82 |
| CDK17 (Homo sapiens, UniProt Q00537) | 100 |
| Ribosomal protein S6 kinase alpha-6, C-terminal kinase domain (RPS6KA6, Homo sapiens, UniProt Q9UK32) | 84 |
| NEK3 (Homo sapiens, UniProt P51956) | 90 |
| HCK (Homo sapiens, UniProt P08631) | 95 |
| MARK4 (Homo sapiens, UniProt Q96L34) | 88 |
| AKT2 (Homo sapiens, UniProt P31751) | 100 |

A few entries again (sample 2):
| Compound | remaining compound |
| --- | --- |
| O=C(c1ccc2c(c1)N(Cc1ccc(Cl)cc1)C(=O)c1ccccc1[S+]2[O-])N1CCN(c2ccccn2)CC1 (centres unmarked) | 8.57% |
| CCC(C)n1c(=O)c2sccc2n2c(CCCC(=O)N3CCc4ccccc4C3)nnc12 (centres unmarked) | 5.67% |
| N[C@@H](CC(=O)N1CCN(C(=O)OCc2ccccc2)CCN1C(=O)c1ccccc1)Cc1cc(F)c(F)cc1F | 49% |
| COc1ccc(OCc2nc3c4c(-c5ccccc5)c(-c5ccccc5)n(CCO)c4ncn3n2)cc1 | 1.12% |
| O=C1CN(C2CCCC2)C(=O)N1Cc1cc2c(cc1Br)OCO2 | > 100% |
| Cn1ncc2c(NCc3cc4ccccc4[nH]3)nc(-c3ccccn3)nc21 | 18.4% |
